Literature values as cited in several papers.
Compare with care: the assays were run in different laboratories. ± gives the spread as reported.

Structure (SMILES)	target or system	test	test system	setting	endpoint	result
O=C(O)C(F)(F)C(F)(F)C(F)(F)C(F)(F)C(F)(F)C(F)(F)C(F)(F)C(F)(F)C(F)(F)C(F)(F)F	CYP3A4	–	–	concentration not given	activity	inactive
CC(=O)O[C@H]1C(=O)[C@@]2(C)[C@H]([C@H](OC(=O)c3ccccc3)[C@]3(O)C[C@H](OC(=O)[C@H](O)[C@@H](NC(=O)c4ccccc4)c4ccccc4)C(C)=C1C3(C)C)[C@]1(OC(C)=O)CO[C@@H]1C[C@@H]2O	LCC6MDR (Pgp+ drug-resistant)	cytotoxicity	–	–	IC50	0.619 µM
FC(F)(F)C(F)(F)C(F)(F)C(F)(F)C(F)(F)C(F)(F)CCI	CYP3A4	inhibitor	–	Tox21 screening	IC50	inactive
CC(C)(C)[C@H](NC(=O)C(F)(F)F)C(=O)N1C[C@H]2[C@@H]([C@H]1C(=O)N[C@H](C#N)C[C@@H]1CCNC1=O)C2(C)C	MRC5	–	–	concentration not given	cytotoxicity	not toxic
CC(=O)O[C@@]12CO[C@@H]1C[C@H](O)[C@@]1(C)C(=O)[C@H](OC(=O)C3CC3)C3=C(C)[C@@H](OC(=O)[C@H](O)[C@H](C=C(C)C)NC(=O)OC(C)(C)C)C[C@@](O)([C@@H](OC(=O)c4ccccc4)[C@H]21)C3(C)C	MCF7	cytotoxicity	–	–	IC50	0.00074 µM
O=C(CS)Nc1ccc(Cl)c(Cl)c1	HEK293	–	–	–	IC50	> 100 µM
O=NN1CCCC1	induced pluripotent stem cells	mutational fingerprint	–	concentration not given	C>T mutation frequency	increased
CC(=O)c1c(O)c(C)c(O)c2c1OC1=CC(=O)C(C(C)=O)C(=O)C12C (single isomer, unassigned; (+))	L6 rat skeletal myoblasts	cytotoxicity	–	–	IC50	11.6 µM
CCCCCOc1ccc(-c2ccc(-c3ccc(C(=O)N[C@H]4C[C@@H](O)[C@@H](O)NC(=O)[C@@H]5[C@@H](O)[C@@H](C)CN5C(=O)[C@H]([C@@H](C)O)NC(=O)[C@H]([C@H](O)[C@@H](O)c5ccc(O)cc5)NC(=O)[C@@H]5C[C@@H](O)CN5C(=O)[C@H]([C@@H](C)O)NC4=O)cc3)cc2)cc1	–	–	human, general patient population	dose not given, typical value	peripheral volume of distribution	23.5 L
N#C[C@@]1(c2ccc3c(N)ncnn23)O[C@H](COP(=O)(O)OP(=O)(O)OP(=O)(O)O)[C@@H](O)[C@H]1O	PBM cells	–	–	–	half-life	42.4 h
O=C(O)[C@H](c1ccccc1)[C@H]1CCCCN1	–	–	human, CES1 wild type, plasma	oral, 10 mg methylphenidate, single dose, median	Cmax	69.5 ng/mL
Cn1nc(C(F)(F)F)cc1C(=O)Nc1ccc(S(=O)(=O)N2CCCCC2)cc1	Vero	–	–	–	CC50	199 ± 27 µM

Excerpt of the above:
Structure (SMILES)	target or system	test	test system	setting	endpoint	result
CC(=O)c1c(O)c(C)c(O)c2c1OC1=CC(=O)C(C(C)=O)C(=O)C12C (single isomer, unassigned; (+))	L6 rat skeletal myoblasts	cytotoxicity	–	–	IC50	11.6 µM
O=C(CS)Nc1ccc(Cl)c(Cl)c1	HEK293	–	–	–	IC50	> 100 µM
